Measurements collected from several papers.
A part holds a random share of what one study measured. Positions count from the first letter of the parent shown.

Sample 1
Target: ABI1, truncated, D143A, DHFR fusion (Arabidopsis thaliana)
Technique: DHFR PCA, deep sequencing
Medium: yeast
Notes: methotrexate growth selection, single substitutions
With: (+)-ABA 0.39 µM
Reference: wild-type fitted maximum
Reading: higher = stronger binding
Starting sequence: PYL1, truncated, DHFR fusion (Arabidopsis thaliana); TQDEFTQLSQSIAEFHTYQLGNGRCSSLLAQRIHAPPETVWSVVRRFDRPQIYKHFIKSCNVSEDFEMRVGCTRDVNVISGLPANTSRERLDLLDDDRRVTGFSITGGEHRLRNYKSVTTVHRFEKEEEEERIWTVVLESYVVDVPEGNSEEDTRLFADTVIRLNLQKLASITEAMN
`D159R`: “relative binding score” -23.2%.
`I52G`: “relative binding score” 0.744%.
`T1A`: “relative binding score” 44.1%.
Under “relative binding score”, `E67C` is recorded as 32.3%.
For `A13M`, “relative binding score” read 30.2%.
`E64D` — result for “relative binding score”: 57.3%.
For `D153P`, “relative binding score” read -17%.
`E4I`: “relative binding score” 48.6%.
Under “relative binding score”, `L93G` is recorded as -7.31%.
`A170Q` — result for “relative binding score”: 26.2%.
Under “relative binding score”, `P83W` is recorded as 0.202%.
`L28W`: “relative binding score” -0.148%.
Under “relative binding score”, `S9N` is recorded as 34.4%.
For `L164Q`, “relative binding score” read 30%.
Under “relative binding score”, `L94C` is recorded as 2.14%.
For `L112I`, “relative binding score” read -8.33%.
Under “relative binding score”, `Y141R` is recorded as -4.82%.

Sample 2
Target: CCNA2, cyclin fold, Cln2 fusion (human)
Technique: yeast growth competition, sequencing
Medium: yeast
Notes: strong parent motif
Reference: not given
Reading: higher = stronger binding
Starting sequence: PKMYT1 docking peptide (human); SFEPRNLLSLFED; partner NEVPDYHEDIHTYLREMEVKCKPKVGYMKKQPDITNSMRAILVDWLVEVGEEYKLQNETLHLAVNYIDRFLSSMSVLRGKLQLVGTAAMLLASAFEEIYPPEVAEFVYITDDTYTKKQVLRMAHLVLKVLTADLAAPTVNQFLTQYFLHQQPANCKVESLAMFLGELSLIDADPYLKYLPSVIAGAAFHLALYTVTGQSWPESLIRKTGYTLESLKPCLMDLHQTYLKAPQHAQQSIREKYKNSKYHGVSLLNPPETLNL
For `SFEPRNLLSLPED [F11P]`, “normalised enrichment score” read -0.213.
Under “normalised enrichment score”, `SFEPCNLLSLFED [R5C]` is recorded as 0.854.
`SLEPRNLLSLFED [F2L]` — result for “normalised enrichment score”: 3.46.
`SFEPRNLLSLSED [F11S]` — result for “normalised enrichment score”: -0.328.
`SFEPRNLLCLFED [S9C]`: “normalised enrichment score” 1.78.
`SFEPRNVLSLFED [L7V]` — result for “normalised enrichment score”: -0.72.
`SFIPRNLLSLFED [E3I]`: “normalised enrichment score” 3.56.
`SFEPRNLLSMFED [L10M]` — result for “normalised enrichment score”: 2.59.
For `SFEPRNLLSLKED [F11K]`, “normalised enrichment score” read -0.644.
`SFEQRNLLSLFED [P4Q]`: “normalised enrichment score” -0.446.
For `SFEPRMLLSLFED [N6M]`, “normalised enrichment score” read -0.143.
Under “normalised enrichment score”, `SFEPRNLMSLFED [L8M]` is recorded as 2.79.
Under “normalised enrichment score”, `SFEPRNLLSLFEI [D13I]` is recorded as 2.76.
Under “normalised enrichment score”, `SFEPRNLLWLFED [S9W]` is recorded as 1.79.
`SFEPRNGLSLFED [L7G]` — result for “normalised enrichment score”: -1.16.
`SFEPRNLLMLFED [S9M]` — result for “normalised enrichment score”: 1.94.
Under “normalised enrichment score”, `SDEPRNLLSLFED [F2D]` is recorded as 0.0755.
For `YFEPRNLLSLFED [S1Y]`, “normalised enrichment score” read 3.15.
`SFEPRNTLSLFED [L7T]`: “normalised enrichment score” -1.16.
`SFEPHNLLSLFED [R5H]` — result for “normalised enrichment score”: -1.15.
`SFEPYNLLSLFED [R5Y]` — result for “normalised enrichment score”: -0.476.
For `SFEPRNLLSLNED [F11N]`, “normalised enrichment score” read -0.222.
`SFEPRNCLSLFED [L7C]` — result for “normalised enrichment score”: -0.633.
`SFEPRNLNSLFED [L8N]`: “normalised enrichment score” 1.5.
`SFEPRNLLSLFID [E12I]` — result for “normalised enrichment score”: 2.02.

Sample 3
Target: Prothrombin, mature alpha-thrombin (F2, Homo sapiens, UniProt P00734)
Technique: aptamer microarray, sandwich
Form: DNA with 2'F-ANA
Medium: in vitro
Tested at: 200 nM
Notes: whole 15-mer aptamer, many near background
With: Cy3 exosite-II aptamer, 400 nM
Reading: higher = stronger binding
Oligonucleotide: GGTTGGTGTGGTTGG
Under “mean fluorescence intensity”, `2'F-ANA at 2 3 4 7 8 9 12` is recorded as 1010 a.u.
`2'F-ANA at 1 7 10 11 12 13`: “mean fluorescence intensity” 66.5 a.u.
For `2'F-ANA at 2 4 7 10 11`, “mean fluorescence intensity” read 92.3 a.u.
For `2'F-ANA at 3 7 10 11 13`, “mean fluorescence intensity” read 633 a.u.
For `2'F-ANA at 1 4 5 8 10 11 13 14`, “mean fluorescence intensity” read 45.6 a.u.
Under “mean fluorescence intensity”, `2'F-ANA at 1 2 7 8 9 10 11 13 15` is recorded as 55 a.u.
`2'F-ANA at 1 3 5 6 9 10 15`: “mean fluorescence intensity” 49.9 a.u.
For `2'F-ANA at 1 3 4 6 10 11 13 14`, “mean fluorescence intensity” read 55.8 a.u.
`2'F-ANA at 1 4 5 6 8 14`: “mean fluorescence intensity” 47.4 a.u.
`2'F-ANA at 5 6 7 10 12 14 15` — result for “mean fluorescence intensity”: 44.2 a.u.
Under “mean fluorescence intensity”, `2'F-ANA at 1 2 6 8 11 12 13 15` is recorded as 243 a.u.
`2'F-ANA at 3 5 6 8 9 10 11 12 13`: “mean fluorescence intensity” 57.7 a.u.
Under “mean fluorescence intensity”, `2'F-ANA at 1 4 5 6 7 8 11 13 14 15` is recorded as 52.3 a.u.
`2'F-ANA at 4 5 11 12 13 15`: “mean fluorescence intensity” 73.6 a.u.
`2'F-ANA at 1 2 4 5 6 7 8 10 11 12` — result for “mean fluorescence intensity”: 92.7 a.u.
Under “mean fluorescence intensity”, `2'F-ANA at 3 5 7 8 9 11 14` is recorded as 68.7 a.u.
`2'F-ANA at 3 4 5 7 8 10 11 13 14`: “mean fluorescence intensity” 46.7 a.u.
Under “mean fluorescence intensity”, `2'F-ANA at 3 4 5 6 10 13` is recorded as 48.1 a.u.
For `2'F-ANA at 1 2 3 6 7 8 15`, “mean fluorescence intensity” read 281 a.u.
`2'F-ANA at 2 4 5 10 11 12`: “mean fluorescence intensity” 50.1 a.u.
`2'F-ANA at 1 2 4 5 7 11 12 13 14` — result for “mean fluorescence intensity”: 49 a.u.
`2'F-ANA at 1 4 5 8 9 10 13 14` — result for “mean fluorescence intensity”: 50.6 a.u.
`2'F-ANA at 2 7 8 9 10 11 13 14`: “mean fluorescence intensity” 111 a.u.
`2'F-ANA at 4 6 7 10 11 12 15` — result for “mean fluorescence intensity”: 122 a.u.

Sample 4
Target: Interferon regulatory factor 3, full length, phosphomimetic (IRF3, Homo sapiens, UniProt Q14653, residues 1-427, S386D/S396D/S398D/S402D/T404D/S405D)
Technique: protein-binding microarray
Form: double-stranded DNA, one strand shown
Medium: in vitro
Tested at: 2540 nM top
Notes: 60-bp whole probe
With: salmon DNA 0.4 mg/ml
Reference: random background probes
Reading: higher = stronger binding
Shared flanks, not repeated: GCCTAGCAC … GTCTTGATTCGCTTGACGCTGCTG
Residues (chain): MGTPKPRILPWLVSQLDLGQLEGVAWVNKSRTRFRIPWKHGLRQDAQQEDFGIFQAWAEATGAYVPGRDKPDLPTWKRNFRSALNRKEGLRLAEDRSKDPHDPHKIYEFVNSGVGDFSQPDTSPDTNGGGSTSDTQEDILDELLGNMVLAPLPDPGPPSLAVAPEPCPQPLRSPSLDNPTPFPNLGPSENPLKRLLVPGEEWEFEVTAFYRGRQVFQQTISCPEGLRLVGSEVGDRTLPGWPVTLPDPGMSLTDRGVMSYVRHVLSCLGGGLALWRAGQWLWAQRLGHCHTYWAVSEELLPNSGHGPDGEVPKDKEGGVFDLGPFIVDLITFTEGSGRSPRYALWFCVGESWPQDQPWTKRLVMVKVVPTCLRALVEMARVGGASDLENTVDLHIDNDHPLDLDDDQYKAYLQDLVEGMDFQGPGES
`GACGGTACCGACACTGGGGACGTGCTA` — result for “fitted relative affinity”: 0.0872 z-score.
For `GACGATATCAGTCTCGAGTCGTGCTAG`, “fitted relative affinity” read 1.56 z-score.
`GGCGGTTCCCTTTTCCTGACGTGCTAG`: “fitted relative affinity” 6.46 z-score.
Under “fitted relative affinity”, `GACGGACTGGACTCTCGGGACGTGCTA` is recorded as -0.488 z-score.
`TCAAGTCTGGGAGATGAAACTGTGCTA` — result for “fitted relative affinity”: -0.78 z-score.
For `TTAGAACTGGGGTTTCGATAAGTGCTA`, “fitted relative affinity” read 0.81 z-score.
For `TTAGAATTGGGGTATCGATTAGTGCTA`, “fitted relative affinity” read -0.21 z-score.
For `GACGGACTGGGGGCTGGGGACGTGCTA`, “fitted relative affinity” read -0.71 z-score.
For `TATCCTATCAGTTTAATATCGTGCTAG`, “fitted relative affinity” read 3.7 z-score.
For `GAGGATATCAGACTGGAGACGTGCTAG`, “fitted relative affinity” read -0.148 z-score.
`TTAGGCCTGGACTATCGGTTAGTGCTA` — result for “fitted relative affinity”: -0.825 z-score.
`GATGGACTGGGTTTCGGGACGTGCTAG` — result for “fitted relative affinity”: 1.06 z-score.
`TCACCTCTTTCTCTGCTACTGTGCTAG`: “fitted relative affinity” 1.76 z-score.
`GACGGTCTCGGTATCGGGACGTGCTAG`: “fitted relative affinity” 2.04 z-score.
Under “fitted relative affinity”, `TTAGGACTGGGGGTTCGGTTAGTGCTA` is recorded as -0.435 z-score.
`TTAGAACTGAGGACTGGATTAGTGCTA`: “fitted relative affinity” -0.618 z-score.
`TCACAATTTGCTTTAGTACTGTGCTAG`: “fitted relative affinity” 0.45 z-score.
`GACGGTCTGCTTATCCTGACGTGCTAG`: “fitted relative affinity” 0.0281 z-score.
Under “fitted relative affinity”, `GAAGCTTCTTTTTTATTCTAGTGCTAG` is recorded as 1.05 z-score.
`GTCCCTATCTCCTCACAGACCGTGCTA` — result for “fitted relative affinity”: 2.3 z-score.
For `GACGATATCGACTTTCGGGACGTGCTA`, “fitted relative affinity” read 0.679 z-score.

For quick reference, copied from above (sample 1):
Under “relative binding score”, `E67C` is recorded as 32.3%.
For `L164Q`, “relative binding score” read 30%.
`D159R`: “relative binding score” -23.2%.
Under “relative binding score”, `S9N` is recorded as 34.4%.
`I52G`: “relative binding score” 0.744%.
`E64D` — result for “relative binding score”: 57.3%.
Under “relative binding score”, `L93G` is recorded as -7.31%.
`L28W`: “relative binding score” -0.148%.
For `A13M`, “relative binding score” read 30.2%.
`E4I`: “relative binding score” 48.6%.
Under “relative binding score”, `Y141R` is recorded as -4.82%.
Under “relative binding score”, `L94C` is recorded as 2.14%.
